Measured values collected from several papers.
Protocols differ between the studies behind these lines. Several values in a cell are separate wells, animals, samples, runs or records.
UniProt P04062, sequence (whole entry, unmodified, looked up): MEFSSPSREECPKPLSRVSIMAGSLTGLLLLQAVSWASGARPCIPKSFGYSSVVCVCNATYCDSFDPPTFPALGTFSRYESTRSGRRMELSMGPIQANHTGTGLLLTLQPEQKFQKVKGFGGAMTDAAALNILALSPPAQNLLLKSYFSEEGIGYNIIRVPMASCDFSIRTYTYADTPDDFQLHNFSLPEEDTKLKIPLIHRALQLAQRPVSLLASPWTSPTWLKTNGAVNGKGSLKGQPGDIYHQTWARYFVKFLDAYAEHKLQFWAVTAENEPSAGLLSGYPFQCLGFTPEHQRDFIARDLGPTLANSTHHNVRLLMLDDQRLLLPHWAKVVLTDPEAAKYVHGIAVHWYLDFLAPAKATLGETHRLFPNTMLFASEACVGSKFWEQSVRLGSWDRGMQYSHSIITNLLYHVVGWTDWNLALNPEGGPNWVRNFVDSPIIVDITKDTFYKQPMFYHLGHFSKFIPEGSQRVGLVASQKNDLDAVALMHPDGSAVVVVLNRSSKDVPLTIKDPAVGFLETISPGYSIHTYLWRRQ

COC(=O)c1cc(NC2=NC(=O)C(=Cc3ccc(N(C)C)cc3)S2)ccc1OC(C)=O — fold change (MCF7; item: PIAS4 mRNA; 0.81 µM (IC50), 24 h; relative to: DMSO): 0.696
COc1cc(CN(C)CCc2ccccc2)ccc1OCc1ccccc1 — relative translation (Trypanosoma cruzi; reporter mRNA translation, inhibitor, item: capped polyadenylated Renilla luciferase mRNA; cell-free extract; concentration not given; relative to: control RNA): 117%
CCN(CC)CC(=O)Nc1cccc(-n2cc(-c3ccc4ccc(-c5cn(-c6cccc(NC(=O)CN(CC)CC)c6)nn5)cc4c3)nn2)c1 — fold regulation (RCC4; PCR angiogenesis array, item: NRP2; 5 x IC50, 2 h, normoxia; relative to: untreated): 1.03
Cc1ncsc1-c1ccc(C(C)NC(=O)C2CC(O)CN2C(=O)C(NC(=O)CCCCCCCCCCN2CCCC(Nc3ncc(Cl)c(Nc4ccccc4S(=O)(=O)C(C)C)n3)C2)C(C)(C)C)cc1 (stereo not shown) — log2 fold change (22Rv1; RNA-seq, item: TMCO1-AS1; concentration not given; relative to: DMSO): -2.89
CCOc1cncc(-c2ccc(NC(=O)C3(c4ccnc(NS(=O)(=O)C5CC5)n4)CCOCC3)nc2)n1 — IC50 (KU-19-19; cell growth or viability, ATP luminescence; 72 h): 0.044 µM
CC(=O)c1cccc(CN2CCCC(CCC(=O)NCc3ccccc3F)C2)c1 (stereo not shown) — relative translation (Trypanosoma cruzi; reporter mRNA translation, inhibitor, item: capped polyadenylated Renilla luciferase mRNA; cell-free extract; concentration not given; relative to: control RNA): 118%
CC(C)c1ccc(N(C)c2ccc3c(c2)OCC[C@H]3CNc2cnccc2C(=O)O)cc1 — IC50 (BICR22; cell viability, CellTiter-Glo; 7 days): ≥ 10 µM
CN1CCCNC(=O)c2cccc(c2)C(=O)NCCCN(C)CCCNc2cccc3c2C(=O)c2cccc(c2C3=O)NCCC1 — log2 fold change (SAS; RNA-Seq, item: ZFYVE27 mRNA; 1 µM, 24 h; relative to: untreated cells): -1.62
CO[C@@H]1[C@@H](OC(N)=O)[C@@H](O)[C@H](Oc2ccc3c(O)c(NC(=O)c4ccc(O)c(CC=C(C)C)c4)c(=O)oc3c2C)OC1(C)C — colony count (HCT-116 BRCA2-/-; 150 µM, replicate 1): 14
CNS(=O)(=O)Nc1nccc(Cc2c(C)c3ccc(Oc4ncccc4F)cc3oc2=O)c1F — IC50 (KATO3; cell viability; 7 days): 0.0793 µM
Cn1ncc2cc(-c3cncc(Cl)c3N3CCC4(CCNC4=O)CC3)ccc21 — log2 fold change (LS174T; gene expression, microarray, item: SLC2A4 mRNA; concentration not given, 24 h; relative to: untreated cells): 2.68
COc1ccccc1-c1ccncc1C(=O)Nc1nnc(OCc2ccc(Cl)cc2)s1 — colony count (DLD-1 parental; 4 µM, single replicate): 82 and 72 and 67 and 81 and 77
COc1ccc(-c2ccc(COCCCCCN3C[C@H](O)[C@@H](O)[C@H](O)[C@H]3CO)cc2)cc1 — IC50 (Lysosomal acid glucosylceramidase (GBA1, Homo sapiens, UniProt P04062, R534H); inhibitor, 4MU-β-D-glucopyranoside; added: 4MU-β-D-glucopyranoside): 2.5 µM

For quick reference, copied from above:
COC(=O)c1cc(NC2=NC(=O)C(=Cc3ccc(N(C)C)cc3)S2)ccc1OC(C)=O — fold change (MCF7; item: PIAS4 mRNA; 0.81 µM (IC50), 24 h; relative to: DMSO): 0.696
